Measurements collected from several papers.
± gives the spread as reported.

With `COC(=O)[C@H]1[C@@H](OC(=O)c2ccccc2)C[C@@H]2CC[C@H]1N2` the stability bias was 19% (rat, whole blood; 10 nM, 4 freeze-thaw cycles).
`CN1CC[C@]23c4c5ccc(O)c4O[C@H]2[C@@H](O)C=C[C@@]3(O)[C@H]1C5` has a Papp of 6.29 ×10⁻⁶ cm/s (PAMPA-BBB; porcine brain lipid; 500 µM, 4 h, pH 7.4, 1% DMSO).
`C#Cc1ccc2c(c1)C(c1ccccn1)=NCc1c(-c3cnco3)ncn1-2.Cl` gave a solubility of 4340 µg/mL (thermodynamic equilibrium, UV; ethanol; 24 h, 25 °C).
The stability bias of `CC(=O)O[C@H]1C=C[C@H]2[C@H]3Cc4ccc(O)c5c4[C@@]2(CCN3C)[C@H]1O5` is reported as 3.83% (rat, whole blood; 10 nM, 4 freeze-thaw cycles).
`CN1CC[C@]23c4c5ccc(O)c4O[C@H]2[C@@H](O)C=C[C@H]3[C@H]1C5`: “conditioned place preference score” “increased” (mouse; intraperitoneal, 10 mg/kg; relative to: vehicle).
With `Cc1ncc(OC[C@@]2(c3cccc(F)c3)C[C@H]2C(=O)Nc2ccc(F)cn2)c(C)n1` the V2/F was 12.3 L (population PK base model; human, plasma; oral).
`COc1ccc2c3c1O[C@H]1[C@@H](O)C=C[C@H]4[C@@H](C2)N(C)CC[C@@]341` has a Papp of 15.2 ×10⁻⁶ cm/s (PAMPA-BBB; porcine brain lipid; 500 µM, 4 h, pH 7.4, 1% DMSO).
`COC(=O)[C@H]1[C@@H](OC(=O)c2ccccc2)C[C@@H]2CC[C@H]1N2C` gave a stability bias of -3.67% (rat, whole blood; 10 nM, 4 h, room temperature, bench-top storage).
`Cc1ncc2n1-c1ccc(Cl)cc1C(c1ccccc1F)=NC2`: “decrease in AUCinf” 16% (healthy human volunteers, plasma; oral, dose not given, CYP3A probe substrate, with: multiple-dose momelotinib; relative to: compound alone).
For `CCC(=O)c1ccccc1`, the logD (chromatographic) was 4.52 (pH 7.4).
For `O=C1c2c(O)c(=O)ccn2N([C@@H]2c3ccccc3SCc3c2ccc(F)c3F)[C@@H]2COCCN12`, the plasma concentration was 4.91 ng/mL (BALB/c mice, plasma; oral, 1.5 mg/kg baloxavir marboxil, 6 h).
Under “grade 3 influenza-like symptoms”, `COc1cc2c(Oc3ccc4[nH]c(C)cc4c3F)ccnc2cc1OCC1(N)CC1` is recorded as 0% (paediatric recurrent refractory sarcoma; 8 mg).
`COC(=O)[C@@H]1[C@H]2CC[C@@H](C[C@@H]1O)N2C` gave a stability bias of 6.53% (rat, whole blood; 1000 nM, 4 h, room temperature, bench-top storage).
The clearance of `Cc1ncc2n1-c1ccc(Cl)cc1C(c1ccccc1F)=NC2` is reported as 358 ± 28 mL/min (wild-type mice, plasma; intravenous, 0.3 mg/kg, with: 3-day PCN 10 mg/kg).
`CN1CC[C@]23c4c5ccc(O[C@@H]6O[C@H](C(=O)O)[C@@H](O)[C@H](O)[C@H]6O)c4O[C@H]2[C@@H](O)C=C[C@H]3[C@H]1C5` has a stability bias of -5.36% (rat, whole blood; 1000 nM, 4 h, room temperature, bench-top storage).
Under “participants with influenza-like illness”, `C[C@H]1CN(C(=O)CC#N)[C@]12CCN(c1ncnc3[nH]ccc13)C2` is recorded as 3.1% (human; oral, dose not given, all compound groups).

Some of these lines once more:
`COc1ccc2c3c1O[C@H]1[C@@H](O)C=C[C@H]4[C@@H](C2)N(C)CC[C@@]341` has a Papp of 15.2 ×10⁻⁶ cm/s (PAMPA-BBB; porcine brain lipid; 500 µM, 4 h, pH 7.4, 1% DMSO).
`COC(=O)[C@H]1[C@@H](OC(=O)c2ccccc2)C[C@@H]2CC[C@H]1N2C` gave a stability bias of -3.67% (rat, whole blood; 10 nM, 4 h, room temperature, bench-top storage).
